Published values collected from several papers.
Lines come from different studies, so protocols differ.
Mode: inhibitor
SLC2A1: Solute carrier family 2, facilitated glucose transporter member 1 (SLC2A1, Homo sapiens, UniProt P11166)
Chain of UniProt P11166 (whole entry, looked up): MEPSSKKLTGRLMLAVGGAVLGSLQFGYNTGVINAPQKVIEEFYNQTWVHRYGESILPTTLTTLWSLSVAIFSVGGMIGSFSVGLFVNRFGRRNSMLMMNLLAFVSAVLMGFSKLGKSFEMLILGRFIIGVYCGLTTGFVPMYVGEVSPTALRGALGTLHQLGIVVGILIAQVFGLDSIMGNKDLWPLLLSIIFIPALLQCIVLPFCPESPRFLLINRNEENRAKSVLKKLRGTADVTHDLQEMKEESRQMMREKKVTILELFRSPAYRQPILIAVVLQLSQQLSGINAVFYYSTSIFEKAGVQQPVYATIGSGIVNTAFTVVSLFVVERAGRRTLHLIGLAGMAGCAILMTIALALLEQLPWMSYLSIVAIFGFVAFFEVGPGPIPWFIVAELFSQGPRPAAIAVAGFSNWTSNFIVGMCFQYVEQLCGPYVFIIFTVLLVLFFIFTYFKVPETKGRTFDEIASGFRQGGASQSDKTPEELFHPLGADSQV
MPO: Myeloperoxidase (MPO, Homo sapiens, UniProt P05164)
Chain of UniProt P05164 (whole entry, looked up): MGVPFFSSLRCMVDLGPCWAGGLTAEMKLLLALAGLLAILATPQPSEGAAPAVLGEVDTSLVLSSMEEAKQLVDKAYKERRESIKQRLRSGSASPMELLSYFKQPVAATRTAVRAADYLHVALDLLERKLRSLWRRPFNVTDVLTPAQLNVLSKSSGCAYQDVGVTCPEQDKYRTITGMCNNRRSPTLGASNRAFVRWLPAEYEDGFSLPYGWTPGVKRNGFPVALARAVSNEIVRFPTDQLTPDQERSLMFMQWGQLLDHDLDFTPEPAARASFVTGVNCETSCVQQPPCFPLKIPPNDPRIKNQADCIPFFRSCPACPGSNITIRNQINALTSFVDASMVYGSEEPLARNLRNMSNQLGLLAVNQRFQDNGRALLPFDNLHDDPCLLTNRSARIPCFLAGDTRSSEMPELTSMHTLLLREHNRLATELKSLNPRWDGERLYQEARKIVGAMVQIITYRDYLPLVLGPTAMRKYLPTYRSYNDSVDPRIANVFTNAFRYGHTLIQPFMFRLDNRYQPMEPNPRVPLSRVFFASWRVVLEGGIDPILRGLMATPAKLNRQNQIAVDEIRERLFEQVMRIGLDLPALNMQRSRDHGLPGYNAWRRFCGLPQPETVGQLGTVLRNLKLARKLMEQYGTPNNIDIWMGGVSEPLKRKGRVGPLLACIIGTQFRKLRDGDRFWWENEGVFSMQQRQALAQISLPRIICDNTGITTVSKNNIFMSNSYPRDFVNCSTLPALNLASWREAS
RET: Proto-oncogene tyrosine-protein kinase receptor Ret (RET, Homo sapiens, UniProt P07949)
Chain of UniProt P07949 (whole entry, looked up): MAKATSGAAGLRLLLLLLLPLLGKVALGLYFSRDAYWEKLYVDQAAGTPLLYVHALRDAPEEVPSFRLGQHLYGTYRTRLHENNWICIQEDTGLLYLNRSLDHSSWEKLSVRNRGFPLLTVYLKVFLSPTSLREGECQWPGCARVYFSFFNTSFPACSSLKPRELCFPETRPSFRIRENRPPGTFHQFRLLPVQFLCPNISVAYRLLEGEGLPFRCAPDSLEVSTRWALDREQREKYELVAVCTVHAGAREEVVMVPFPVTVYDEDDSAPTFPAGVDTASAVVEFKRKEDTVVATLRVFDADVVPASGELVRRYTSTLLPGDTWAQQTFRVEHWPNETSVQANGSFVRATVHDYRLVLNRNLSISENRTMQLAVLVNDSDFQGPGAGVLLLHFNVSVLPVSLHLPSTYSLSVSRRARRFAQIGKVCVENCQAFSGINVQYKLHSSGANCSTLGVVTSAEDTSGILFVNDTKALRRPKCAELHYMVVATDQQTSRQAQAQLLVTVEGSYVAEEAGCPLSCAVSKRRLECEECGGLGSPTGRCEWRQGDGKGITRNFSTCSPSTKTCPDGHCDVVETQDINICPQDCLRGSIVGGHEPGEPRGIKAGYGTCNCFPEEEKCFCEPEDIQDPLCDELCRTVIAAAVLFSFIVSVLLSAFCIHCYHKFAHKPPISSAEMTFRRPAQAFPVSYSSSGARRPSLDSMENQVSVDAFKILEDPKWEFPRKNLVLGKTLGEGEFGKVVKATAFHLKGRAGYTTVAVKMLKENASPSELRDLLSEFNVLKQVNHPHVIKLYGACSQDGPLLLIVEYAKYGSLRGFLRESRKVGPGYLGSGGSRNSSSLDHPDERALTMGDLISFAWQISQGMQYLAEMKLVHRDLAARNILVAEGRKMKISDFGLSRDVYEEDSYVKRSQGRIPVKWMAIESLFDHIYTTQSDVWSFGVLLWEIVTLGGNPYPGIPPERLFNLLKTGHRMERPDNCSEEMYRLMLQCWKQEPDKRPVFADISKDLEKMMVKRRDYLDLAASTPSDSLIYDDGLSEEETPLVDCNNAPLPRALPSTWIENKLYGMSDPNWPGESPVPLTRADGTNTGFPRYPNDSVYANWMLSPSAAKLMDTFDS
AAK1: AP2-associated protein kinase 1 (AAK1, Homo sapiens, UniProt Q2M2I8)
Chain of UniProt Q2M2I8 (whole entry, looked up): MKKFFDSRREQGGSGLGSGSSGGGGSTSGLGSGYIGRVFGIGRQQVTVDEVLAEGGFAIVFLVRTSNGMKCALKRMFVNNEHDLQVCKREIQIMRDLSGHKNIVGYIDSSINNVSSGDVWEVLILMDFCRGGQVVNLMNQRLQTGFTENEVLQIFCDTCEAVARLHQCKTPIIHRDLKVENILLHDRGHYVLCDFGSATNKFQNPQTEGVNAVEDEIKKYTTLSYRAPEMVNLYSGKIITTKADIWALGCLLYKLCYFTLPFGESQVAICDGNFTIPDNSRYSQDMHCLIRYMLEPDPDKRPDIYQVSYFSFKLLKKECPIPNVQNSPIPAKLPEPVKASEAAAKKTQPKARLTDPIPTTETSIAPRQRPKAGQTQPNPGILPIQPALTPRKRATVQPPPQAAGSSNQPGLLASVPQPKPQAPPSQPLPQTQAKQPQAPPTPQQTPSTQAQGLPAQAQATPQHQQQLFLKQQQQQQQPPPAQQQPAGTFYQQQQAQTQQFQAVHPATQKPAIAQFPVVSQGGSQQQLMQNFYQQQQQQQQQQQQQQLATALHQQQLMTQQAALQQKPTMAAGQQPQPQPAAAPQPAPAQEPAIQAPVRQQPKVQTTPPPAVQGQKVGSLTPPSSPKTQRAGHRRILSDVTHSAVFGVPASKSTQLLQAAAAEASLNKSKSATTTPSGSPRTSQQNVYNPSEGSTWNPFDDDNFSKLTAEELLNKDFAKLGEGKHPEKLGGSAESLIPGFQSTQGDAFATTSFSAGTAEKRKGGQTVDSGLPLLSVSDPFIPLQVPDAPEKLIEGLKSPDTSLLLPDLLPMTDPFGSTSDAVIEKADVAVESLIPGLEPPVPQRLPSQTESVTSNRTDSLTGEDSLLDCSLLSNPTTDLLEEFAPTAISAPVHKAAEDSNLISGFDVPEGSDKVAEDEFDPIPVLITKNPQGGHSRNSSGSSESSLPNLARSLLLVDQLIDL
Chain of UniProt P51957 (whole entry, looked up): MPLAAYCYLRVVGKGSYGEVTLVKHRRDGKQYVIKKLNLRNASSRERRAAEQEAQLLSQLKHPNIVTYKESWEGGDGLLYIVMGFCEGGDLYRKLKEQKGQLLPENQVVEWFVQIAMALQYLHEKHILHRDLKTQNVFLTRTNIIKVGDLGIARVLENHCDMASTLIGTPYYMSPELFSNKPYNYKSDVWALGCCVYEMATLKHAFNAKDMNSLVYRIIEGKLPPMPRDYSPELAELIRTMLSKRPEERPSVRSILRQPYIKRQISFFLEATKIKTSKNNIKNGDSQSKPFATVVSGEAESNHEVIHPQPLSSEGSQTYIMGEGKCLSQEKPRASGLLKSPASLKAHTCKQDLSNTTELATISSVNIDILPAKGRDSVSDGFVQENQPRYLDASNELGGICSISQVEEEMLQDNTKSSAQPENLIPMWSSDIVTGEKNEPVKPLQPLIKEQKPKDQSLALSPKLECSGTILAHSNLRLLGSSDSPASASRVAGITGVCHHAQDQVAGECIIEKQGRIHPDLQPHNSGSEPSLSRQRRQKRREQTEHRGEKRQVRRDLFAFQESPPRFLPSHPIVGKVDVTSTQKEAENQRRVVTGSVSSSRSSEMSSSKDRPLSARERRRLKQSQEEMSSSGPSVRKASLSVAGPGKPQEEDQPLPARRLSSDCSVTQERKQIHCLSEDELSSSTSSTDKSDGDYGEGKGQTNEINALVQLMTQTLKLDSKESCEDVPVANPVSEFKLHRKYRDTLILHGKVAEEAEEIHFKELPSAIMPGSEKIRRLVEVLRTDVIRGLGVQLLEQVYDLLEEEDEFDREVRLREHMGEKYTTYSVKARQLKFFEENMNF
Chain of UniProt P51817 (whole entry, looked up): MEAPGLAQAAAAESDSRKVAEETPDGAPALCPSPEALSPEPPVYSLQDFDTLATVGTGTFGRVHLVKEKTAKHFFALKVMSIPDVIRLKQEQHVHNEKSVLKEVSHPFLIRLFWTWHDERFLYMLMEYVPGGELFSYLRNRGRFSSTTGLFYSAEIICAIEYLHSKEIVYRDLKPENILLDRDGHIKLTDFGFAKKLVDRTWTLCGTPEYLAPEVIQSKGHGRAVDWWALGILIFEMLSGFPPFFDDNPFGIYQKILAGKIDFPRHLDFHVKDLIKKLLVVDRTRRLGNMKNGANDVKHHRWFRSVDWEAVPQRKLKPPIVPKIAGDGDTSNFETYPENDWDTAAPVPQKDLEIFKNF
Chain of UniProt Q00535 (whole entry, looked up): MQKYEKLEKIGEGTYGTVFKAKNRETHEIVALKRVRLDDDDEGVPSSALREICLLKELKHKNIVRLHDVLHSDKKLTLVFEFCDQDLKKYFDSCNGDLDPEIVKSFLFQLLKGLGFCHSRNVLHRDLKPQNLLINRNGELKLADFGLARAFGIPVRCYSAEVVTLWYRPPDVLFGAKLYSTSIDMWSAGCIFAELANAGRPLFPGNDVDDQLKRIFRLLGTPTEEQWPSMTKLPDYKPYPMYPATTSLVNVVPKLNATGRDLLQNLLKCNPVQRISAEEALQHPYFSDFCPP

| Compound | target | assay | system | setting | remaining activity |
| --- | --- | --- | --- | --- | --- |
| C/C(=N\O)c1ccc(-c2ccc(O)c(Cl)c2)c(Cl)c1O | SLC2A1 | transporter uptake, radiometric | NCI-H1299 | 30 µM | 9% |
| COc1cc(-c2cncc3c2CN(C)Cc2cc(N4CCNCC4)ccc2-3)cc(OC)c1OC | Serine/threonine-protein kinase Nek2 (NEK2, Homo sapiens, UniProt P51955) | enzyme activity |  | 1 µM | 92% |
| Cc1cc([C@@H](C)Nc2ccccc2C(=O)O)c2nc(N3CCC(F)(F)CC3)c(C#N)c(=O)n2c1 | Phosphatidylinositol 4-kinase type 2-alpha (PI4K2A, Homo sapiens, UniProt Q9BTU6) | enzyme activity, ADP detection |  | 10 µM | 98% |
| NC/C(=C\F)COc1cccc(Cn2c(=S)[nH]c(=O)c3[nH]cnc32)c1 | MPO | enzyme activity |  | 1.25 µM | 7.68% |
| NC1=Nc2nc3ccccc3n2C(c2c[nH]nc2-c2cccc(O)c2)N1 (stereo not shown) | RET | enzyme activity, radiometric |  | 0.1 µM | 117% |
| CNc1ncc2c(/C=C/C(=O)N3CCC(OC)CC3)nn(Cc3cccc(C(F)(F)F)c3)c2n1 | Serine/threonine-protein kinase Nek4 (NEK4, Homo sapiens, UniProt P51957) | enzyme activity, radiometric |  | 1 µM | 95% |
| CC[C@H](C)[C@H](NC(=O)[C@H](CCC(N)=O)NC(=O)[C@H](CC(C)C)NC(=O)[C@H](CCSC)NC(=O)[C@H](CCCCN)NC(=O)[C@H](CO)NC(=O)[C@H](CO)NC(=O)[C@H](CCSC)NC(=O)[C@H](CC(C)C)NC(=O)[C@H](CC(N)=O)NC(=O)[C@@H](NC(=O)[C@@H](NC(=O)[C@H](CO)NC(=O)[C@H](CC(C)C)NC(=O)[C@H](CS)NC(=O)[C@H](CCCNC(=N)N)NC(=O)[C@H](CC(=O)O)NC(=O)[C@H](Cc1c[nH]c2ccccc12)NC(=O)[C@H](Cc1ccccc1)NC(=O)[C@H](C)NC(=O)[C@H](CCC(=O)O)NC(=O)[C@@H](N)CCCCN)C(C)C)[C@@H](C)CC)C(=O)N[C@@H](CC(N)=O)C(=O)N[C@@H](C)C(=O)O | Mitogen-activated protein kinase 3 (MAPK3, Homo sapiens, UniProt P27361) | enzyme activity, radiometric |  | 50 µM, 20 min | 97% |
| O=C(Cn1c(=O)n(CC2CCCO2)c(=O)c2ccc(C(=O)NCCc3ccccc3)cc21)Nc1ccc(F)c(Cl)c1 (stereo not shown) | RET | enzyme activity, radiometric |  | 10 µM | 85.3% |
| O=C(NCCCNc1ccnc(Nc2cccc(NC(=O)N3CCCC3)c2)n1)C1CCC1 | AAK1 | enzyme activity, radiometric |  | 1 µM | 33% |
| COc1cccc(NC(=O)Nc2c(-c3ccc(Cl)cc3)nn(-c3ccc(F)cc3)c2N)c1 | RET | enzyme activity, radiometric |  | 10 µM | 96.3% |
| COc1ccc(Cl)cc1-c1cc(=O)[nH]c(=S)n1CC(N)=O | MPO | enzyme activity |  | 1.25 µM | 44.6% |
| Cc1nn(CC(F)(F)F)cc1Nc1nccc(NCCc2cnc[nH]2)n1 | AAK1 | enzyme activity, radiometric |  | 1 µM | 82% |
| CC(=O)OCc1cnc(C)c2oc(=Nc3ccc(F)cc3)c(C(=O)Nc3ccc4c(c3)OCO4)cc12 | RET | enzyme activity, radiometric |  | 10 µM | 101% |
| CC[C@H](C)[C@H](NC(=O)[C@H](CCC(N)=O)NC(=O)[C@@H](NC(=O)[C@H](CCSC)NC(=O)[C@H](CCCCN)NC(=O)[C@H](CO)NC(=O)[C@@H](NC(=O)[C@H](CCSC)NC(=O)[C@H](CC(C)C)NC(=O)[C@H](CC(N)=O)NC(=O)[C@@H](NC(=O)[C@@H](NC(=O)[C@H](CO)NC(=O)[C@H](CC(C)C)NC(=O)[C@H](C)NC(=O)[C@H](CCCNC(=N)N)NC(=O)[C@H](CCC(=O)O)NC(=O)[C@H](Cc1ccc(O)cc1)NC(=O)[C@H](Cc1ccccc1)NC(=O)[C@H](C)NC(=O)[C@H](CC(N)=O)NC(=O)[C@@H](N)CCCCN)[C@@H](C)CC)[C@@H](C)CC)[C@@H](C)O)C(C)C)C(=O)N[C@@H](CC(N)=O)C(=O)N[C@H](C(=O)O)C(C)C | Cyclin-dependent kinase 5, with p35 (CDK5, Homo sapiens, UniProt Q00535) | enzyme activity, radiometric |  | 250 µM, 20 min | 27% |
| COc1ccc(-n2nc(C(=O)Nc3ccc4c(c3)OCO4)c(=O)cc2OC)cc1OC | RET | enzyme activity, radiometric |  | 0.1 µM | 120% |
| C/C(=N\O)c1ccc(-c2ccc(C#N)cc2)c(Cl)c1O | SLC2A1 | transporter uptake, radiometric | NCI-H1299 | 30 µM | 78% |
| CCOc1ccccc1NC(=O)Nc1cc(OC)c2nc(NC(=O)c3ccccc3)sc2c1 | RET | enzyme activity, radiometric |  | 10 µM | 101% |
| C/C(=N\O)c1ccc(-c2cccc(OC(F)(F)F)c2)c(Cl)c1O | SLC2A1 | transporter uptake, radiometric | NCI-H1299 | 30 µM | 75% |
| CC(C)OCCn1c(=S)[nH]c(=O)c2[nH]ccc21 | MPO | enzyme activity |  | 78 nM | 103% |
| O=C(Nc1ccc(NC(=O)c2ccoc2)cc1C(F)(F)F)Nc1ccc(NC(=O)c2ccoc2)cc1C(F)(F)F | RET | enzyme activity, radiometric |  | 0.1 µM | 113% |
| CCCOc1ccc(OC)c(F)c1C(=O)c1ccc(C(=O)N[C@@H]2CNC[C@H]2NC(=O)c2ccc3[nH]ncc3c2)cc1 | cAMP-dependent protein kinase catalytic subunit PRKX (PRKX, Homo sapiens, UniProt P51817) | enzyme activity |  | 10 µM | 1% |
| N=C(N)c1ccc(-c2ccc(-c3ccc(C(=N)N)c(F)c3)o2)cc1F | Protein arginine N-methyltransferase 5 (PRMT5, Homo sapiens, UniProt O14744) | enzyme activity, radiometric |  | 20 µM | 101% |

For quick reference, copied from above:
| Compound | target | assay | system | setting | remaining activity |
| --- | --- | --- | --- | --- | --- |
| NC1=Nc2nc3ccccc3n2C(c2c[nH]nc2-c2cccc(O)c2)N1 (stereo not shown) | RET | enzyme activity, radiometric |  | 0.1 µM | 117% |
| CNc1ncc2c(/C=C/C(=O)N3CCC(OC)CC3)nn(Cc3cccc(C(F)(F)F)c3)c2n1 | Serine/threonine-protein kinase Nek4 (NEK4, Homo sapiens, UniProt P51957) | enzyme activity, radiometric |  | 1 µM | 95% |
